{"data": "Measurements gathered from unrelated publications", "note": "Each numbered part is a random draw from the data of one study; scales do not carry over between parts. Positions count from the first letter of the parent shown."}
{"data": "Study 1", "target": "Fragile X messenger ribonucleoprotein 1, C-terminal low-complexity region (Fmr1, Mus musculus, UniProt P35922)", "technique": "RNA Bind-n-Seq", "form": "RNA", "sample": "in vitro", "tested at": "200 nM", "notes": "whole 134-nt RNA, ends assumed", "together with": "150 mM KCl", "baseline": "input library", "direction": "higher = stronger binding"}
{"Sequence": "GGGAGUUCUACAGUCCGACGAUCCUGUGCUACACAUCGUAUGUACCGAAUCGGGGUUUUUUUGGGGAAAGGGGUUUUUUUGGGGAAAGUAUUAUGUUACGCCGUUCGGAUCUGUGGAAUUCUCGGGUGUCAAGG", "log2 enrichment": -0.319}
{"Sequence": "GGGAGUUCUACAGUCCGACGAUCUCCUGUGCUACACAUCGUAUGUACCGAAUCGGGGAAAAAAGGGAAAAAAGGGAAAAAAGGAAAGUAUUAUGUUACGCCGUUCGGAUCUGCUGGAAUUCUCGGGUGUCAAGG", "log2 enrichment": 0.0431}
{"Sequence": "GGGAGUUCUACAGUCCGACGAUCUAACUUUAGAGGAGGAUCUGAUGGGUAUGGCAGUGGACGUGGAUUUGGGGAUGGCUAUAAUGGGUAUGGAGGAGGACCUGGAGGUGGCAAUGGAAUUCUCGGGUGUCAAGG", "log2 enrichment": 0.365}
{"Sequence": "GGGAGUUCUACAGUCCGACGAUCUCAAGUCCUGUGCUACACAUCGUAUGUACCGAAUCGGGAAAAAGGGUGGGUGGGAAAGUAUUAUGUUACGCCGUUCGGAUCUGCACUUCCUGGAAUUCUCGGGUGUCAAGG", "log2 enrichment": 1.09}
{"Sequence": "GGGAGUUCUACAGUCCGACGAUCUAGCCAAGAGUCGAAGCUAAACCAGAAGUUCAAUCUCAGCCACCUCGUGUGCGUGAACAACGACCUAGAGAACGACCUGGUUUUCCUCCUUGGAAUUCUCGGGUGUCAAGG", "log2 enrichment": -0.234}
{"Sequence": "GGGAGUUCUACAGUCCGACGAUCCCUGUGCUACACAUCGUAUGUACCGAAUCGGAAAAAAAGGAAAAAAAGGAAAAAAAGGGGAAAGUAUUAUGUUACGCCGUUCGGAUCUGCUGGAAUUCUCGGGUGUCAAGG", "log2 enrichment": -0.742}
{"Sequence": "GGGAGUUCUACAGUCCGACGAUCCAAGUCCUGUGCUACACAUCGUAUGUACCGAAUCGGGUUGGGGUUGGGGUUGGGGAAAGUAUUAUGUUACGCCGUUCGGAUCUGCACUUCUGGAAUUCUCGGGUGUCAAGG", "log2 enrichment": 1.31}
{"Sequence": "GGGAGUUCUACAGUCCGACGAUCCCUCAAGUCCUGUGCUACACAUCGUAUGUACCGAAUCGGGUUGGGUUGGUUGGAAAGUAUUAUGUUACGCCGUUCGGAUCUGCACUUCCAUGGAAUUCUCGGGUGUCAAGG", "log2 enrichment": 0.374}
{"Sequence": "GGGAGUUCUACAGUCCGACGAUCUGUACAAACACUUUCCCAUCCCCCUCAUUAACCGGCUGGAGAAGCACUAUCUGGAUAUCAACACGGUGCUGGAGAAAUGGCAGAAGAGCAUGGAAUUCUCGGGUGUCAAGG", "log2 enrichment": -0.198}
{"data": "Study 2", "target": "PABPC1L2, full length, GST fusion (mouse, UniProt A0ABA7IW68)", "technique": "RNAcompete", "form": "RNA", "sample": "in vitro", "tested at": "20 nM", "notes": "7-mer, probes averaged, single round", "baseline": "mean of 7-mers", "direction": "higher = stronger binding", "Target sequence (chain)": "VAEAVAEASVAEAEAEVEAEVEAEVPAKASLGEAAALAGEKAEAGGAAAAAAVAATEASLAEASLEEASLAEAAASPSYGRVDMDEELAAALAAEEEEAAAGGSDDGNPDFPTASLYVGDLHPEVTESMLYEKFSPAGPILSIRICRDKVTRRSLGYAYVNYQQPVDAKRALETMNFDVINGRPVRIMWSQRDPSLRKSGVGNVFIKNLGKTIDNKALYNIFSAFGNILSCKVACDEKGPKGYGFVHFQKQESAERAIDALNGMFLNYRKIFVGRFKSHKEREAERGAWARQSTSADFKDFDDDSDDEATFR"}
{"Sequence": "UGUCUUA", "7-mer Z-score": -0.427}
{"Sequence": "GCAGAAG", "7-mer Z-score": 0.12}
{"Sequence": "GCUGAUU", "7-mer Z-score": -0.0826}
{"Sequence": "GACAUGC", "7-mer Z-score": -0.0554}
{"Sequence": "CGACGCA", "7-mer Z-score": -0.0627}
{"Sequence": "UCCGACG", "7-mer Z-score": -0.286}
{"Sequence": "AGGAAGG", "7-mer Z-score": 0.206}
{"Sequence": "UACCCUU", "7-mer Z-score": -0.358}
{"Sequence": "UUCAAUG", "7-mer Z-score": -0.195}
{"Sequence": "ACCACAC", "7-mer Z-score": -0.142}
{"Sequence": "GUCGGUA", "7-mer Z-score": -0.00833}
{"Sequence": "GCAUACA", "7-mer Z-score": 0.142}
{"data": "Study 3", "target": "Histone acetyltransferase KAT6A, winged helix 2, GST fusion (KAT6A, Homo sapiens, UniProt Q92794, residues 85-181)", "technique": "protein binding microarray", "form": "double-stranded DNA, one strand shown", "sample": "in vitro", "tested at": "not given", "notes": "8-mer, flanks averaged, mean of 2 arrays, mostly near background", "baseline": "not given", "direction": "higher = stronger binding", "Construct (chain)": "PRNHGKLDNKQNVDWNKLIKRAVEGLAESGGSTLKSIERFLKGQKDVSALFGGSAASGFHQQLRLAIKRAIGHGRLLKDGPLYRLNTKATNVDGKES"}
{"Sequence": "ATAAGGCA", "E-score": 0.00498}
{"Sequence": "ACCCGTAT", "E-score": -0.0433}
{"Sequence": "AAAGTATC", "E-score": 0.0741}
{"Sequence": "ACGCGTAT", "E-score": -0.0258}
{"Sequence": "AGTCATAG", "E-score": -0.26}
{"Sequence": "TAGGTCGA", "E-score": 0.0693}
{"Sequence": "GTGGCGTA", "E-score": 0.0404}
{"Sequence": "GGCCTATA", "E-score": -0.272}
{"Sequence": "GTTTTCGA", "E-score": 0.141}
{"Sequence": "GACGCGTA", "E-score": -0.0382}
{"Sequence": "GCAAACGA", "E-score": 0.195}
{"Sequence": "CTCCCTCA", "E-score": -0.0728}
{"Sequence": "CATGTAGA", "E-score": -0.0143}
{"Sequence": "AAGCGGAC", "E-score": -0.159}
{"Sequence": "AAAGTGAC", "E-score": -0.0992}
{"Sequence": "AACAAGTC", "E-score": -0.0142}
{"Sequence": "AGTCGCTA", "E-score": -0.0271}
{"Sequence": "CTCGAGTC", "E-score": -0.0649}
{"Sequence": "CTTTCCCA", "E-score": -0.029}
{"Sequence": "AGGCGGTG", "E-score": 0.163}
{"Sequence": "CGACACGA", "E-score": 0.114}
{"Sequence": "ATTGCACA", "E-score": 0.0724}
{"data": "Study 4", "target": "CCNF, cyclin fold, Cln2 fusion (human)", "technique": "yeast growth competition, sequencing", "sample": "yeast", "notes": "strong parent motif", "baseline": "not given", "direction": "higher = stronger binding", "starting sequence": "SCAPER docking peptide (human); SNARRSLNFGGST"}
{"Substitution": "SWARRSLNFGGST [N2W]", "normalised enrichment score": 7.54}
{"Substitution": "SNARRSLNFGGKT [S12K]", "normalised enrichment score": 6.69}
{"Substitution": "SNARRSLNQGGST [F9Q]", "normalised enrichment score": 0.92}
{"Substitution": "SNARRSYNFGGST [L7Y]", "normalised enrichment score": 0.939}
{"Substitution": "SNARSSLNFGGST [R5S]", "normalised enrichment score": 0.593}
{"Substitution": "SNARRSLNFTGST [G10T]", "normalised enrichment score": 6.69}
{"Substitution": "SNVRRSLNFGGST [A3V]", "normalised enrichment score": 8.04}
{"Substitution": "SNANRSLNFGGST [R4N]", "normalised enrichment score": 3.7}
{"Substitution": "SNARRSANFGGST [L7A]", "normalised enrichment score": 1.83}
{"Substitution": "SNARASANFGGST [R5A L7A]", "normalised enrichment score": 0.113}
{"data": "Study 5", "target": "UBE2G1 UBC core domain (UniProt P62253)", "technique": "yeast two-hybrid", "sample": "yeast", "notes": "mostly zero background", "baseline": "not given", "direction": "higher = stronger interaction", "B1": "RC3H2 RING domain (UniProt Q9HBD1); chain QAAQWTEFLSCPICYNEFDENVHKPISLGCSHTVCKTCLNKLHRKACPFDQTAINTDIDVL", "B2": "IRF2BPL RING domain (UniProt Q9H1B7); chain SPMANSGPLCCTICHERLEDTHFVQCPSVPSHKFCFPCSRESIKAQGATGEVYCPSGEKCPLVGSNVP", "B3": "ARK2C RING domain (UniProt Q6ZSG1); chain EGEESDTDEKCTICLSMLEDGEDVRRLPCMHLFHQLCVDQWLAMSKKCPICRVDIETQLGAD", "B4": "TRIM69 RING domain (UniProt Q86WT6); chain VIQDITMELHCPLCNDWFRDPLMLSCGHNFCEACIQDFWRLQAKETFCPECKMLCQYNNCTF", "Construct (chain)": "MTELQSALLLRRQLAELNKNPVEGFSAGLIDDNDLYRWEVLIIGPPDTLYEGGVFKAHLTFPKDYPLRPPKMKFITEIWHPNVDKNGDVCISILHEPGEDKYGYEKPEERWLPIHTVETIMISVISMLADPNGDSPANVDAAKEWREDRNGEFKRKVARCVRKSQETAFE"}
{"Molecule": "QLRRLQEERTCKVCMDKEVSVVFIPCGHLVVCQECAPSLRKCPICRGIIKGTVRTF (BIRC2 RING domain (UniProt Q13490))", "lacZ reporter activity": 0}
{"Molecule": "FPEHFVKSISCQICEHILADPVETNCKHVFCRVCILRCLKVMGSYCPSCRYPCFPTDLES (RAG1 RING domain (UniProt P15918))", "lacZ reporter activity": 0}
{"Molecule": "B1 (RC3H2 RING domain)", "lacZ reporter activity": 0}
{"Molecule": "B2 (IRF2BPL RING domain)", "lacZ reporter activity": 0}
{"Molecule": "B3 (ARK2C RING domain)", "lacZ reporter activity": 0}
{"Molecule": "QHHELTSLFECPVCFDYVLPPILQCQAGHLVCNQCRQKLSCCPTCRGALTPSIRNL (SIAH2 RING domain (UniProt O43255))", "lacZ reporter activity": 0}
{"Molecule": "QLQDIKEQTMCPVCLDRLKNMIFLCGHGTCQLCGDRMSECPICRKAIERRILLY (MIB1 RING domain (UniProt Q86YT6))", "lacZ reporter activity": 0}
{"Molecule": "B4 (TRIM69 RING domain)", "lacZ reporter activity": 0}
{"note": "For quick reference, copied from above (study 1):"}
{"Sequence": "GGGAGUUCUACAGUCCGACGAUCCUGUGCUACACAUCGUAUGUACCGAAUCGGGGUUUUUUUGGGGAAAGGGGUUUUUUUGGGGAAAGUAUUAUGUUACGCCGUUCGGAUCUGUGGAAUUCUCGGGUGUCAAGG", "log2 enrichment": -0.319}
{"Sequence": "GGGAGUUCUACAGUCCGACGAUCUCCUGUGCUACACAUCGUAUGUACCGAAUCGGGGAAAAAAGGGAAAAAAGGGAAAAAAGGAAAGUAUUAUGUUACGCCGUUCGGAUCUGCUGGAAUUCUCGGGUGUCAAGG", "log2 enrichment": 0.0431}
{"Sequence": "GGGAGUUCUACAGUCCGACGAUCUAACUUUAGAGGAGGAUCUGAUGGGUAUGGCAGUGGACGUGGAUUUGGGGAUGGCUAUAAUGGGUAUGGAGGAGGACCUGGAGGUGGCAAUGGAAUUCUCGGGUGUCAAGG", "log2 enrichment": 0.365}
{"Sequence": "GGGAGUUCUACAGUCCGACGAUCUCAAGUCCUGUGCUACACAUCGUAUGUACCGAAUCGGGAAAAAGGGUGGGUGGGAAAGUAUUAUGUUACGCCGUUCGGAUCUGCACUUCCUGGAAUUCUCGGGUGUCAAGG", "log2 enrichment": 1.09}
{"Sequence": "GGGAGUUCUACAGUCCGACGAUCUAGCCAAGAGUCGAAGCUAAACCAGAAGUUCAAUCUCAGCCACCUCGUGUGCGUGAACAACGACCUAGAGAACGACCUGGUUUUCCUCCUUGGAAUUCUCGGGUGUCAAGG", "log2 enrichment": -0.234}
{"Sequence": "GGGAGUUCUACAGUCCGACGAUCCCUGUGCUACACAUCGUAUGUACCGAAUCGGAAAAAAAGGAAAAAAAGGAAAAAAAGGGGAAAGUAUUAUGUUACGCCGUUCGGAUCUGCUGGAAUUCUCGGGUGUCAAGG", "log2 enrichment": -0.742}
{"Sequence": "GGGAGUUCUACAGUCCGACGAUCCAAGUCCUGUGCUACACAUCGUAUGUACCGAAUCGGGUUGGGGUUGGGGUUGGGGAAAGUAUUAUGUUACGCCGUUCGGAUCUGCACUUCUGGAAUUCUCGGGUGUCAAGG", "log2 enrichment": 1.31}
